Measured values of several laboratories.
A part holds a random share of what one study measured. Changes are numbered by the printed parent chain.

Block 1 — method: protein binding microarray; form: double-stranded DNA, one strand shown; sample: in vitro; concentration: not given; reference: not given; reading: higher = stronger binding
Target: Histone acetyltransferase KAT6A, winged helix 1, GST fusion (KAT6A, Homo sapiens, UniProt Q92794, residues 1-85)
Notes: 8-mer, flanks averaged, mean of 2 arrays, mostly near background
Construct (chain): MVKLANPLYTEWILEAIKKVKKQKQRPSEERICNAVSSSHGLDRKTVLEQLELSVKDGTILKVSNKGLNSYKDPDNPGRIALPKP
| Sequence | E-score |
| --- | --- |
| TACCGCTA | 0.301 |
| CAGCTTGA | -0.148 |
| CAGGCGAA | -0.251 |
| ATGCTGCG | 0.112 |
| CGGAGTGA | 0.0805 |
| ACAACGGT | 0.0244 |
| AGAGAGTC | -0.178 |
| GGTTTCCA | -0.173 |
| GCTTACTA | 0.0582 |
| CCCGAGGG | -0.0305 |
| ATGTTATC | -0.0796 |
| CAATGTTA | -0.0822 |
| AAACAGTA | -0.055 |
| GTACCGAA | -0.00427 |
| CCATATCG | 0.15 |
| CTCAGGTC | 0.0882 |
| CTACTTTA | -0.091 |
| TTCCTAAA | -0.318 |
| ACCACAGA | -0.279 |
| GGAACCCC | 0.183 |
| CACAGAGC | -0.0959 |

Block 2 — method: DHFR PCA, deep sequencing; sample: yeast; with: (+)-ABA 0 µM; reference: wild-type fitted maximum; reading: higher = stronger binding
Target: ABI1, truncated, D143A, DHFR fusion (Arabidopsis thaliana)
Notes: methotrexate growth selection, single substitutions
Starting sequence: PYL1, truncated, DHFR fusion (Arabidopsis thaliana); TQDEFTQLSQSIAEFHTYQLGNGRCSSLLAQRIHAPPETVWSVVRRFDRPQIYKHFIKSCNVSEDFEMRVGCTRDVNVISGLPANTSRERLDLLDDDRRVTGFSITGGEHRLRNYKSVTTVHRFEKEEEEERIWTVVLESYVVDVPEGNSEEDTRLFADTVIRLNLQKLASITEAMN; partner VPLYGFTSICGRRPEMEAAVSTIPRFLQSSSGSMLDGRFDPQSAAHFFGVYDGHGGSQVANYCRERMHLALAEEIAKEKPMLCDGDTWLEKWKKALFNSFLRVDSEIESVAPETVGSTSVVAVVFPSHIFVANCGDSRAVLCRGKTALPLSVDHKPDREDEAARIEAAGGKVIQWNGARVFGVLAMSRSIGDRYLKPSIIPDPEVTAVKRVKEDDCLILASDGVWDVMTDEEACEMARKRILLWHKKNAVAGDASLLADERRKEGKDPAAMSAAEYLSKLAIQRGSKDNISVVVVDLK
| Change | relative binding score [%] |
| --- | --- |
| H122D | -1.11 |
| S42T | 4.6 |
| E125I | 18.8 |
| T154N | -12 |
| D97T | 26.2 |
| N85L | 52.6 |
| E147R | 1.24 |
| A84G | 39.9 |
| L28E | 1.34 |
| Q19T | 38.2 |
| L164S | 9.23 |

Block 3 — target: CCNA2, cyclin fold, Cln2 fusion (human); method: yeast growth competition, sequencing; sample: yeast; notes: strong parent motif; reference: not given; reading: higher = stronger binding
Starting sequence: SCAPER docking peptide (human); SNARRSLNFGGST
| Change | normalised enrichment score |
| --- | --- |
| G11Y | 6.15 |
| N2R | 6.56 |
| T13M | 5.98 |
| N8V | 4.21 |
| S12C | 6.52 |
| S12M | 5.39 |
| L7H | 1.05 |
| R4P | 0.937 |
| R4K | 5.49 |
| N8W | 6.16 |
| S1V | 6.59 |
| T13W | 5.7 |
| R4T | 1.9 |
| N8H | 5.66 |

Block 4 — method: RNA Bind-n-Seq; form: RNA; sample: in vitro; concentration: 200 nM; notes: whole 134-nt RNA, ends assumed; with: 150 mM KCl; reference: input library; reading: higher = stronger binding
Target: Fragile X messenger ribonucleoprotein 1, C-terminal low-complexity region (Fmr1, Mus musculus, UniProt P35922)
All sequences stand within: GGGAGUUCUACAGUCCGACGAUC … UGGAAUUCUCGGGUGUCAAGG
| Sequence | log2 enrichment |
| --- | --- |
| UCAAGUCCUGUGCUACACAUCGUAUGUACCGAAUCGGAGGUUUGGUUUUUUUGGAAAGUAUUAUGUUACGCCGUUCGGAUCUGCACUUCC | -0.458 |
| GUCCUGUGCUACACAUCGUAUGUACCGAAUCGGGAAAGGGUUUUUUUGGGUUUUUGGGAAAGUAUUAUGUUACGCCGUUCGGAUCUGCAC | -0.15 |
| CUCAAGUCCUGUGCUACACAUCGUAUGUACCGAAUCGGAAGGGGAAGGAAGGGAAAGUAUUAUGUUACGCCGUUCGGAUCUGCACUUCCA | -0.0201 |
| UUUUUGAAUCAAUUUUUAAAACAUGCCAUUGUGUUUCAGGCUCGCGGGAUUGAUGUGCAACAAGUGUCUUUGGUUAUAAAUUAUGAUCUA | -0.146 |
| AUUAUAGACUUGAUCAAAACACAGGAAAAGGCAACUCCCAGGAACUUUCCGCCACGAUUCCAGGAUGGAUAUUACAGCUGACAGCUUUUC | -0.66 |

Block 5 — method: RNA Bind-n-Seq; form: RNA; sample: in vitro; concentration: 365 nM; reference: no-protein control; reading: higher = stronger binding
Target: RNA binding protein fox-1 homolog 2, RRM domain, GST-SBP tag (RBFOX2, Homo sapiens, UniProt O43251-10, residues 100-194)
Notes: natural RNA segment, single round, ends assumed
All sequences stand within: GGGAGUUCUACAGUCCGACGAUC … UGGAAUUCUCGGGUGCCAA
Construct (chain): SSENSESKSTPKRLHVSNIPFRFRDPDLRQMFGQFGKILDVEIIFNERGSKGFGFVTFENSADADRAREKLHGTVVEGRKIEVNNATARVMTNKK
| Sequence | RBNS enrichment (R) |
| --- | --- |
| AAGAAUCCAGAGGUGAAGAGGGAGACGGCUCUUAGCUGCGUUCAAGGCGGGGCCCUCGGGAGCCCAGGUGCAGAGCGAGGCCGUGUCCAGGAGCCGGCGUCCCUCAGUGC | 0.502 |
| GUUGUAGGCCUGGCCUUUGCCCAGGCAAUGGACCUUUGAUGCGAGGAACCUUGCUACUUCCCCACUGGGGCCCCAAAUACCCUUACUCUCUCCUAGCCGCUGCUUUACAA | 0.64 |
| CCCUACUUCUGUGUGCUCGAGCUGCCCCAGCCAUCACUGAGCCCACUCAGGACUGCUCCUGGAAGACAUCUCAAGGUGGGAAGCCUGGCUUUCCUGGGCUUUGCUUUCUU | 0.297 |
| CUUGAAAGGAUUUCCACCAGACUGUCUUGAGUAGUGACUUCUUUGGUGAGGCAAGAAGGAUAUACAUUAUUUUAGAAUCAUUUACUAUUUAAAUGAGACAAUCAUAUUAU | 0.45 |
| AUAUAUAUUUUAAUAUCUAUGUAAAAAAGUGACAGUGGAGGACUGAAUUUCUCAUGUAUACUAUGUUUAAUGGUAGGGUCUCACUGUUAAGGCACAAAUUAUUUCAAAGG | 0.537 |
| UCUUCAGUGAUUUCCACAAUUGUGCAUUUUAUUCUUUGGUUUAAGUACUGAAGCAUAUAAUGAAAGUAAUUGCUAAGUAGCAGCUUAAAAAUUCAAUUAUCCGAUUGUAU | 0.392 |
| UCAUUGGUACGGUUUUUCUAAGGGCCGCAGUGAGAUGUAGCAGAAGAAAUAUGUUUAUUUUGGGCAAAGAUUUGCUUAUUGGCCUGGGAUUGCACAUUUUCUCUAUGAUG | 0.455 |
| ACCUCACGCCUGAGAUGAUCCUCAGCAUGAUGGACCGUGAUGCUGGGGCCUUGCUCGGCACCAGGACUAUUGGGCUGUGUUUAAACGGCCCAAAUCUUAAUUUUUCUCUU | 8.46 |
| GCGGGUGUGAGCCAUUGCGCCCAGCCUUGAAGUCAUGUUCUAAAUUGUAUUUGAAUUUGUGCCUCUUUGUUUUUCCCCAAACCAAAGCCCUCAAAUUGUAGUCUCUGUCG | 0.262 |
| AGGAAGCAUUUGUACAGUGGCUAAUUUAAGGGGAGUGGGAGACCCUGUCACCCUGAGCACUCUGCGCUGGGGAGGGGUUUAAAUUAUUGACCUUGUACAGUCUGCUUGCU | 0.888 |
| GAGACGGAACAUUCUCUAGAGACAACAGUCUGUGCUGCAGAUUGGUUGGAUCACAGAAUGUGUGUCUGGGGCAUUAUCUGAAACGUGGUGUCAUCUGAUGCAUUUGGACC | 0.237 |
| AAACUCCACAGGCCUCCAGAGAAUACCAGUUUCUCAGCCCAAGGGGUCCAUCACUGAGAAGUGCCCAAAGGGAAGUCAGGGAGCUGGGAGGAAAAGACAGCAGGACCAAG | 0.375 |

Block 6 — method: RNA Bind-n-Seq; form: RNA; sample: in vitro; concentration: not given; notes: RNA with constant flanks, ends assumed; reference: input RNA pool; reading: higher = stronger binding
Target: RING finger protein unkempt homolog, zinc fingers 1-6, GST-SBP tag (UNK, Homo sapiens, UniProt Q9C0B0, residues 30-357)
Sequence of UniProt Q9C0B0 (30-357, looked up): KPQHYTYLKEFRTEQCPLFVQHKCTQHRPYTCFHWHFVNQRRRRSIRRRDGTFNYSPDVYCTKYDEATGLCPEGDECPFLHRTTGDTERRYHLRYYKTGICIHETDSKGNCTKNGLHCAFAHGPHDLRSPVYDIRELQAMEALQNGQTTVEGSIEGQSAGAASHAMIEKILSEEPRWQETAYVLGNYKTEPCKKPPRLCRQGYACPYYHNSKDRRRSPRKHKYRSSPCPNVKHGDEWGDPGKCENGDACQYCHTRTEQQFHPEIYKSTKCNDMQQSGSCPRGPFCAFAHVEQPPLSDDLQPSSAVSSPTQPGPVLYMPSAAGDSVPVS
All sequences stand within: GGGAGUUCUACAGUCCGACGAUC … CAACAGAGGAUUGAGCAUCA
| Sequence | bound/input enrichment |
| --- | --- |
| CGGUGUUGGACAUAUGAAACAUCUCUGCUGGUAGAAGAGGCCAUUAGUGAGGAACUUCCCUACCGUGAAUACUUCGAGUACUUUGCCCCAGAUUUCACACUCCAUCCAGAUGUCAGCACC | 0.178 ratio |
| UAUGAAGUAUUUCAGACCCAGUUGUAGAUCAUCACUCCGCCACUCUCUCCUUUAUUGCCUACCCGUUAUUUAAAUUGGACUUUUAAUAUCCUACCAGCUGCUCUUCAGACACACAUGGUG | 1.12 ratio |
| AAAAGAAAUUUCCAGCUAACAUUUUUAAAUCAUGAUGUUGUCAAAAUCUCUCCAAAAUCAGUCCGAAAUAAGCUUUUGGAAAGUCAAAGUAAAAAGAAAAUUCAUGGAAAGAGGGUGACA | 0.42 ratio |
| CGGUGAUGUCCUUACUGUCCCCAGCCAGGGCCGGGGACCGGUGUUUCACUGAGGACCUGCAUCCGAAACAUUUUUUAAAUUGUUGUACAGGAAGAGAUGUGUCUAAAACAGCAUCUUAAA | 0.176 ratio |
| AAUCAAGUUCUAUUCCAGACUAACGGUGGGCCUGGGCUUUAUAUUUUUAUGUAAACUAUUUUCCGACUGGAGGAUUUGGUUUUCAGAGGAAAGCUUUACGCAUAAUUAAACCAUGGGAGU | 0.254 ratio |
| CAGAUUCACAGGGAUUUGAAAGCUGGUAAUAUUCUUCUGGGUGAGGAUGGUUCAGUACAAACCGCAGAUUUUGGGGUAAGUGCGUUCCUAGCAACAGGGGGUGAUGUUACCCGAAAUAAA | 0.207 ratio |
| UCUGGUCUCCUUGGAGAAAGGUUCUGUUGCCCUGAUUUAUGAACUCUAUAAUAGAGUAUACCGGUUUUGUACCUUUUUUACAGGAAGGUGACUUUCUGUAACAAUGCGAUGUAUAUUAAA | 0.427 ratio |
| GAAGCUAUUGGAAAGAAUAACCCUCCCCUGAAGUCCCGGAGCUUCUCGCUGGCAUCCCGUGGUAAUUCUCCCAUAUCCCAGCGGAGACCAAGUCAGAAUGCCAUGUCUUUUUUUAAUGUU | 0.634 ratio |

Excerpt of the above (block 1):
| Sequence | E-score |
| --- | --- |
| TTCCTAAA | -0.318 |
| ACCACAGA | -0.279 |
| GGAACCCC | 0.183 |
| CACAGAGC | -0.0959 |
